Assay results of several laboratories.
Every numbered part comes from another study and shows a few of its results, in no order.

Study 1 — technique: protein binding microarray; molecule type: double-stranded DNA, one strand shown; matrix: in vitro; tested at: not given; baseline: not given; reading: higher = stronger binding; endpoint: E-score
Target: Histone acetyltransferase KAT6A, both winged helices, GST fusion (KAT6A, Homo sapiens, UniProt Q92794, residues 1-181)
Notes: 8-mer, flanks averaged, mean of 2 arrays, mostly near background
Construct (chain): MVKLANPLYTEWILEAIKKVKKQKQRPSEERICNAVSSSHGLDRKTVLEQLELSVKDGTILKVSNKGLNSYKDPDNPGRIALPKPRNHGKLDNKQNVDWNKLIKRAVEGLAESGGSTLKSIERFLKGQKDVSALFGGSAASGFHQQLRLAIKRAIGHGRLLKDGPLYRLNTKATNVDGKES
Strand = GCGACATA; value = 0.186
Strand = AACGGGCA; value = 0.228
Strand = AGTCGCAT; value = 0.123
Strand = CTTCATTC; value = -0.108
Strand = ATATTGTA; value = 0.0386
Strand = ATTTAGGA; value = -0.191
Strand = GGTTAACA; value = 0.137
Strand = CGCTGGTC; value = 0.163
Strand = AGCTCGTG; value = -0.059
Strand = GGACCAAA; value = -0.0989
Strand = ATAGCTCC; value = -0.187
Strand = AGCCTGCG; value = 0.118
Strand = AAAATGAT; value = -0.0264
Strand = TCATAAGA; value = -0.0851
Strand = CTACCTAG; value = -0.261
Strand = GGCAACCA; value = -0.0023
Strand = CCACCTCG; value = -0.138
Strand = CATCGTGA; value = 0.0432
Strand = GATATACA; value = 0.039
Strand = AACCCAGG; value = -0.14
Strand = ACGTTATG; value = 0.0243
Strand = AATGCTAC; value = -0.0123
Strand = TGACACAA; value = -0.0998
Strand = GCCATAGC; value = 0.0609
Strand = CGAACCAA; value = -0.022

Study 2 — technique: RNA Bind-n-Seq; molecule type: RNA; matrix: in vitro; tested at: not given; baseline: input RNA pool; reading: higher = stronger binding; endpoint: bound/input enrichment
Target: RING finger protein unkempt homolog, zinc fingers 1-6, GST-SBP tag (UNK, Homo sapiens, UniProt Q9C0B0, residues 30-357)
UniProt Q9C0B0, sequence (30-357, looked up): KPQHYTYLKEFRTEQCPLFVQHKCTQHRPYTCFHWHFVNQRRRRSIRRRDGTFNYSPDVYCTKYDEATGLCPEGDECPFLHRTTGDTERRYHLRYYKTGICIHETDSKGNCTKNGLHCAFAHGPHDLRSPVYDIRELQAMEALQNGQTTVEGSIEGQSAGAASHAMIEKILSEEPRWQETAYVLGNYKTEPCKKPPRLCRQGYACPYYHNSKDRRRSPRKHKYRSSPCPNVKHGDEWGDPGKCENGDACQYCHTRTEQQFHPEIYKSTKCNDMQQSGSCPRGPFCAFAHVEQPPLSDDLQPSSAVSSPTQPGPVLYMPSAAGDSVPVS
Notes: RNA with constant flanks, human-mouse chimeric sites, ends assumed
Shared flanks, not repeated: GGGAGUUCUACAGUCCGACGAUC … CAACAGAGGAUUGAGCAUCA
Strand = CCAAUUGUGGAGCAGUACUUGAAGACAAAGAAAAAUUCUAGUCAUUUAAUCAUCAAGUACAUUAGCUGCCGCCUGCUGACACUCAUCAUUAUACUGUUGGCAUGUAUCUACCUGGGCUAU; value = 0.526 ratio
Strand = GCCACCAGAUCCCAGAAACAUGACCCUUGCAGCCUAUAAGGAGAAGAUGAAGGAGCUCCCGCUGGUGUCCUUGUUCUGCUCCUGCUUCCUGGCCGAUCCCCUGAAUAAGUCGUCCUACAA; value = 0.17 ratio
Strand = UAAGUUAUUUUGUACAGCUUUGUAAAUUCUUAACAUUUUUAUAUUGCCAUGUUUAUUUUGUUUGGGUAAUUUGGUUCAUUAAGUACAUAGCUAAGGUACAUCUUUCAUUUUUCAGUAAUU; value = 1.14 ratio
Strand = GACCCACAGUGGUCUGAGGAGCAACUCAUUGCUGCAAAAUUCUGUUUUGCUGGACUUGUUAUAGGGCAGACUGAAGUGGACAUCAUGAGUCAUGCCACACAAGCUAUUUUUGAAAUUCUG; value = 0.182 ratio
Strand = UAACCACAUCAAGAUGGUUGGGAAGCUGAAGCAGAACUUACUAUUGGCGUGUCUGGUGAUUAGUUCUGUGACCGUGUUUUACCUGGGCCAGCAUGCCAUGGAGUGCCAUCACCGAAUAGA; value = 0.239 ratio
Strand = CAGGGCAUCAUCUCUCGUGCUGUUAGACACCUGUUCAAGAGUAUUGAUGAGAAAAAGCACAUAGCAAUUAAAAAUGGGCUGCCCCCUCCUGAAUUCAAAGUGAAUGCCCAGUUCCUAGAG; value = 0.788 ratio
Strand = GUGUCCUGCUUUCAACUUAAAUCACUGAGGCAUCUCUACUGUUCUGUGAGCAUCAGGAUUUUAGUGCUGUGUCACCACAGAUGAGAACAGAAGCAGCCUUUCUGUGGAGGGUGGGAAUGA; value = 0.153 ratio
Strand = AGAGAAAUGAGAAAGAAUCUUACACAAGAAGAGAUGCAAAGAAUGUCUACUAGAGUCCUUUUGGCGACUCUUUCCAUUCCUAUUACUCCUGAGCGUACUGAUAUUGCUCGACUUCUGGAU; value = 0.595 ratio

Study 3 — technique: RNA Bind-n-Seq; molecule type: RNA; matrix: in vitro; tested at: 365 nM; baseline: no-protein control; reading: higher = stronger binding; endpoint: RBNS enrichment (R)
Target: RNA binding protein fox-1 homolog 2, RRM domain, GST-SBP tag (RBFOX2, Homo sapiens, UniProt O43251-10, residues 100-194)
Notes: natural RNA segment, single round, ends assumed
Shared flanks, not repeated: GGGAGUUCUACAGUCCGACGAUC … UGGAAUUCUCGGGUGCCAA
Target sequence (chain): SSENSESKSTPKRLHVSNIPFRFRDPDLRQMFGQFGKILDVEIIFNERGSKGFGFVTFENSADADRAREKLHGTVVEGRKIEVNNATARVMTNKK
Strand = UGCCAUCAGACAUUAAGCUGUAGCUGGCUCUGGCCAGCUGCUCCAGUGUACCAGAACCUGAGGAUGCUCGCUGCAAGGCCUCAGUUCUCAGGCCUUAGGGUGUAUUUGUC; value = 0.302
Strand = UCCCGCUCAUAUGAGAGAGCAGGUGUCUGCCCUUGAGAGCUGGUGAGCCGCGUCAUCUGUUUGCGCUGGGCAAGGAGCUGCACCGCUGCGUUGACCUGCCUUGUCUUACG; value = 0.531
Strand = UUCCCUUUGGGUAGCUGUGAUCUGCAGUAAGUCUGGGGAGAACCUGAGUACACCACUACACGUUGGGUAAAAGCAGGUGGGGCCUUUCUGGUUGGAUUAGGCACCCUUCA; value = 0.383
Strand = UUCCCUUGAGCCAGCUCCAUUGCUACUUAUUCAUGUGACUGAAGCUGACCACAGGCAGCUGGCAGGUCCUUUUUUCAACCAGCAGGCUAGGCUGGCCAUAGACCCAGCUC; value = 0.426
Strand = CCUCUUGUUAGAAAAGUCUGUGUUUAUAUACAGGCUGUAAGUUUGUGAUUGAUAAAAAGAAGAUGAGUGUUAAUUAGCCUCCAGUGAAAAUAUACUGAAAGCCUGUUUUC; value = 0.532
Strand = GGGAGCUCUGAAGAAGGAGCUCUGAAGGAAAGGAACAUUGUAUCUGGACAGCAAGCAAGCCAUUUCCCCCCAUGUUCUCUUUCCUUCCUCCUACCCAUACUUCCUUCUCU; value = 0.319
Strand = UUGUUAAAUAAUGAUAUGUAACUUUUUAACUUUUUAAAUAAAUAACAAGAUUUUUAAUGUGUGUCUCCCUCAGGGUUGUUUAAAGUUUUUUUUCUCCCUCAAGUAUAAAU; value = 0.887
Strand = UUUCUACAACUGGAGUUUUUUUAUACAAUGUUCUUUGUCUCAAAAUAAAGCAAUGUGUUUUUUCGGACAUGCUUUUCUGCCACUCCAUAUUAAAACAUAUGACCAUUGAG; value = 0.474

Study 4 — technique: universal PBM; molecule type: double-stranded DNA, one strand shown; matrix: in vitro; tested at: 600 nM; reading: higher = stronger binding; endpoint: E-score
Target: Sal-like protein 4, full length isoform A (SALL4, Homo sapiens, UniProt Q9UJQ4, residues 1-1053)
UniProt Q9UJQ4, sequence (whole entry, looked up): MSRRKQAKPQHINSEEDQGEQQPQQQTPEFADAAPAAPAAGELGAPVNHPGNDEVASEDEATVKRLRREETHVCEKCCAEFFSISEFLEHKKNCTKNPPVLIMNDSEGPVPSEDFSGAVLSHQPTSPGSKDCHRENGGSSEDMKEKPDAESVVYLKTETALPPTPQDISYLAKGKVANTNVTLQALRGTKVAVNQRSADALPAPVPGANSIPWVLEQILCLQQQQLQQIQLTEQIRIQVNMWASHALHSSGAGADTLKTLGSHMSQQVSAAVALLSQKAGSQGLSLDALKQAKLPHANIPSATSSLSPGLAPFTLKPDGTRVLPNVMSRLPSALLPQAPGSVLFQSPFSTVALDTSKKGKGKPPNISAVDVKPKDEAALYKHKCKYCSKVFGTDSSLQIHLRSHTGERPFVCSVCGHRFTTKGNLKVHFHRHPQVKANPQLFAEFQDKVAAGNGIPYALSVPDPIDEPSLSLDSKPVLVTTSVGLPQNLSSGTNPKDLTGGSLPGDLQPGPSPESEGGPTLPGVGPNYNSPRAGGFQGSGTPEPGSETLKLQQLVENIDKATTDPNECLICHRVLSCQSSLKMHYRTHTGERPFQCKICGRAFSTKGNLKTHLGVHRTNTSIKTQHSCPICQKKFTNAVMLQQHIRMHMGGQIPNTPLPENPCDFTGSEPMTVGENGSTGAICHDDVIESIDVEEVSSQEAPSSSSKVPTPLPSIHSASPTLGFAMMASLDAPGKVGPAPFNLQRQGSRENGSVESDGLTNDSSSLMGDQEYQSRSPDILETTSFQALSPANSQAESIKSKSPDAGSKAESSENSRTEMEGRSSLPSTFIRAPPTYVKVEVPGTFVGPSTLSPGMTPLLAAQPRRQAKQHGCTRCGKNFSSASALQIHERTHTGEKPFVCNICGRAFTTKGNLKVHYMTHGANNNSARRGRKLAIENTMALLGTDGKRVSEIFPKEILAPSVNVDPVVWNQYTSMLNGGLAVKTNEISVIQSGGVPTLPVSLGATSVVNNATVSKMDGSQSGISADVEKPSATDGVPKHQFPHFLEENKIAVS
Notes: 8-mer, flanks averaged, mean of replicates
Strand = CCCGCAAA; value = 0.0227
Strand = CGCTCAAC; value = -0.107
Strand = GAAAATCA; value = 0.274
Strand = ATCTTAGC; value = 0.0312
Strand = GACTTAAC; value = -0.128
Strand = AGCAGGGC; value = -0.285
Strand = AAGATCGA; value = 0.114
Strand = CAATAAAA; value = 0.344
Strand = AGCCGCGA; value = -0.309
Strand = GAAGTATA; value = 0.255
Strand = CGACGGAA; value = -0.136
Strand = CGCTATTA; value = 0.175
Strand = GCCATGCA; value = -0.0265
Strand = ATGGCCTA; value = 0.0314
Strand = GCGGGATA; value = -0.135
Strand = ATTGCTTA; value = 0.318
Strand = ACGGTTAG; value = -0.195
Strand = GATACAGA; value = 0.0367
Strand = GCTAAGAC; value = -0.0196
Strand = ACAGCTCA; value = -0.117
Strand = AAGGGTAA; value = 0.065
Strand = AGTCCTCC; value = -0.0539
Strand = GCGGAAAA; value = 0.156
Strand = GAGTTCAA; value = 0.123
Strand = ACTCCTTA; value = 0.0616

Repeated from above (study 1):
Strand = ATATTGTA; value = 0.0386
Strand = ATTTAGGA; value = -0.191
Strand = GGTTAACA; value = 0.137
Strand = CGCTGGTC; value = 0.163
Strand = AGCTCGTG; value = -0.059
Strand = GGACCAAA; value = -0.0989
